Values quoted from earlier work, collected from citations in different studies.
Numbered parts are unrelated; values within a part may stem from several laboratories.
Sequence of UniProt P59676 (whole entry, looked up): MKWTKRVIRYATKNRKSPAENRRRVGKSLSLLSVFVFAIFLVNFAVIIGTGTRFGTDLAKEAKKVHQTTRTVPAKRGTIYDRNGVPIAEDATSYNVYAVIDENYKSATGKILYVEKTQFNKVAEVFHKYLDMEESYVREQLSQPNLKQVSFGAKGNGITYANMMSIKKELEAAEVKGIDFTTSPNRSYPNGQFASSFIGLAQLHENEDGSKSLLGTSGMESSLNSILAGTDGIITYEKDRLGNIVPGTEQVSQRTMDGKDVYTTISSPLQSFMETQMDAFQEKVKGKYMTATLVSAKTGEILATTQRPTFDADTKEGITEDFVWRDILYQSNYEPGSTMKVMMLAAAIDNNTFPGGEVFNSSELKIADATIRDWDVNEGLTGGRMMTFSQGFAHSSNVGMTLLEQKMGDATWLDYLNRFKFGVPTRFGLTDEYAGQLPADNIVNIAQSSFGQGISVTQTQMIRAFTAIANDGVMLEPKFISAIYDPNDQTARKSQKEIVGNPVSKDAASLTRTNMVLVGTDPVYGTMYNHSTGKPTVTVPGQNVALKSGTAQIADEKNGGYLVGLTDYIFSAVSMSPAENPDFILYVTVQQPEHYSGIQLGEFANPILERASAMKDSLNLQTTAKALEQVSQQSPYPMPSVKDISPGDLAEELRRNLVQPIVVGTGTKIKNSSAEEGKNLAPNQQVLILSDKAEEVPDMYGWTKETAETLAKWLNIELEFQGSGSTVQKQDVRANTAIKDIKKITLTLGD

Set 1
Target: HLA class I histocompatibility antigen, B alpha chain, allele B*08:02 (Homo sapiens, UniProt P01889)
Read-out: peptide-MHC binding
Molecule type: peptide
| Molecule | IC50 [µM] |
| --- | --- |
| FMKSRVYSI | 0.041 |
| FLIRRFFMF | 0.031 |
| YARRYFYPL | 0.043 |

Other studies, line by line
| Compound | tested on | assay | system | setting | how to read | quantity | result |
| --- | --- | --- | --- | --- | --- | --- | --- |
| CNC(=C[N+](=O)[O-])NCCSCc1ccc(CN(C)C)o1 | – | – | human, plasma | concentration not given, range of reported values | – | Cmax | 1.14 to 9.11 µM |
| N[C@@]1(c2ccccc2Cl)CCCCC1=O | – | – | mouse | dose not given, added: 1-ABT and ticlopidine | relative to: without CYP inhibitors | AUC(0-3h) | increased |
| CC1(C)S[C@@H]2[C@H](NC(=O)Cc3ccccc3)C(=O)N2[C@H]1C(=O)O | Penicillin-binding protein 2X (Streptococcus pneumoniae R6, UniProt P59676) | inhibitor | – | – | – | kinact/Ki | 200000 M⁻¹ s⁻¹ |
| CC(=O)c1c(O)c(C)c(O)c2c1OC1=CC(=O)C(C(C)=O)C(=O)C12C (single isomer, unassigned; (+)) | L6 rat skeletal myoblasts | cytotoxicity | – | – | – | IC50 | 11.6 µM |
| OC(Cn1cncn1)(Cn1cncn1)c1ccc(F)cc1F | – | – | mouse | dose not given | – | elimination half-life | 5 h |
| O=c1[nH]c2ccccc2n1C1CCN(CCCC(c2ccc(F)cc2)c2ccc(F)cc2)CC1 | – | – | human, plasma | concentration not given, range of reported values | – | Cmax | 0.002 to 0.012 µM |

Some of these lines once more (other studies, line by line):
| Compound | tested on | assay | system | setting | how to read | quantity | result |
| --- | --- | --- | --- | --- | --- | --- | --- |
| N[C@@]1(c2ccccc2Cl)CCCCC1=O | – | – | mouse | dose not given, added: 1-ABT and ticlopidine | relative to: without CYP inhibitors | AUC(0-3h) | increased |
